Results of several laboratories.
Each numbered part is a random draw from the data of one study; scales do not carry over between parts.

Series 1 — technique: RNA Bind-n-Seq; form: RNA; medium: in vitro; concentration: not given; relative to: input RNA pool; direction: higher = stronger binding; quantity: bound/input enrichment
Target: RING finger protein unkempt homolog, zinc fingers 1-6, GST-SBP tag (UNK, Homo sapiens, UniProt Q9C0B0, residues 30-357)
UniProt Q9C0B0, sequence (30-357, looked up): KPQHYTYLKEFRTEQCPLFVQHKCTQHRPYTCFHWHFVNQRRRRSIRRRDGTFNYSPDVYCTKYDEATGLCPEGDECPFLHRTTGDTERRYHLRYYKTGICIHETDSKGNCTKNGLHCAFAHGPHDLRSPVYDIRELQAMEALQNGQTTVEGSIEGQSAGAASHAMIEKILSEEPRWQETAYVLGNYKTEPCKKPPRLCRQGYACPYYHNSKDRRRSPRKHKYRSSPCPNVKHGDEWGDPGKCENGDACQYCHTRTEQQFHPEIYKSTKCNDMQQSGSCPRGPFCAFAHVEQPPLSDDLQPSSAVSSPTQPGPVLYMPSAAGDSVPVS
Notes: RNA with constant flanks, human and mouse sites, ends assumed
All sequences stand within: GGGAGUUCUACAGUCCGACGAUC … CAACAGAGGAUUGAGCAUCA
UUAUUAGAAUCUAUACCUACACAUUCUGAUCAGGAAAAAGAAGUUAACAUUAAAAAACCAGAAGACAAUGAAAAUCUGGAUGACAAAGAUGAUGACACAACUAGGGUAGAUGAAUCCCUC: 0.443 ratio
CCAGAAUACACCAAAAAAAUAGAAAACCUCUGUGCUAUGGGUUUUGAUAGGAACGCAGUAAUAGUGGCCUUGUCUUCAAAAUCAUGGGAUGUAGAGACUGCAACAGAACUGCUUCUGAGU: 0.499 ratio
AAAGAAUAUGAAGUAAUGUAUUCUUCAUCUUGUGAAACCACAAGAAAUACUACAGGCAUUGAAGAAUCAACUGAUGGGAUGAUUUUAGGACCAGAAGAUCUGAGUUACCAAAUAUAUGAU: 0.17 ratio
UCUGCCACCCAGCAGAAGAAAAACACCAAACUCUCUAGCAAAACCACUGCUAAGUUAUCCACUAGUGCUAAAAGAAUUCAGAAGGAGCUAGCUGAAAUAACCCUUGAUCCUCCUCCUAAU: 1.6 ratio
AGUGAGGAGGGGGUGUUGUAACAAAAUUGGACAACUUAAAAGAAUGGUGUGUGCUGGGUGAAAGACAAAGACUAAAGAAUGAGGAAACAAACGUGAUGCCUGGCCAGUGACUGUCAUAUA: 0.589 ratio
UAUGCUUCUUUUUUAUCCAUGUAAUGUGUUGCCUUUUUUAAAAGAACAAAUACUACAAUAACGUGUGAAGUGGUCAAUCCCUAAGACAUCAAAGAAAGGCCACAUAACCCUACCCUUCUA: 0.301 ratio
UUUGGUCUGGGCAGUGAAUCUCCCUAUAAGCAGCCUUCUGAUGGAAUGGAGAGACCAUCUUCCCUGAUGGACUCUUCACAGGAAAAGUUCUACCCAGAUACUUCUUUCCAAGAAGAUGAG: 0.104 ratio
GCUGCCACUGCCGCAGCAGCCGAGCCCAAGUCUGAGGGCGUUGUGGCUAUGACUUUCAAGAUUUUUCUCCUUUUUGCAGGGCUUAUGGUUAAAGUUCCUGUGGGGUUAUAUUUUUCCUGC: 0.167 ratio
CAGAUUUUGGCAGGAGUUAGAAUAAAUCCCGGGGCCUGGGCUUCUCUAUUCUUGGCCCUCCGUAGUCUCCCUCCGAGAGGAGGCCAGAGGGAGAGGAGGAUCUCAGCAGGCCUCUAGCCG: 2.73 ratio

Series 2 — technique: protein-binding microarray; form: double-stranded DNA, one strand shown; medium: in vitro; concentration: 250 nM; notes: 60-bp whole probe; added: salmon DNA 0.4 mg/ml; relative to: random background probes; direction: higher = stronger binding; quantity: log fluorescence; all sequences stand within: GCCTAGCAC … GTCTTGATTCGCTTGACGCTGCTG
Target: Interferon regulatory factor 7, full length, phosphomimetic (IRF7, Homo sapiens, UniProt Q92985, residues 1-503, S101K/S471D/S472D/S475D/S476D/S477D/S483D/S484D/S487D)
UniProt Q92985, sequence (whole entry, unmodified, looked up): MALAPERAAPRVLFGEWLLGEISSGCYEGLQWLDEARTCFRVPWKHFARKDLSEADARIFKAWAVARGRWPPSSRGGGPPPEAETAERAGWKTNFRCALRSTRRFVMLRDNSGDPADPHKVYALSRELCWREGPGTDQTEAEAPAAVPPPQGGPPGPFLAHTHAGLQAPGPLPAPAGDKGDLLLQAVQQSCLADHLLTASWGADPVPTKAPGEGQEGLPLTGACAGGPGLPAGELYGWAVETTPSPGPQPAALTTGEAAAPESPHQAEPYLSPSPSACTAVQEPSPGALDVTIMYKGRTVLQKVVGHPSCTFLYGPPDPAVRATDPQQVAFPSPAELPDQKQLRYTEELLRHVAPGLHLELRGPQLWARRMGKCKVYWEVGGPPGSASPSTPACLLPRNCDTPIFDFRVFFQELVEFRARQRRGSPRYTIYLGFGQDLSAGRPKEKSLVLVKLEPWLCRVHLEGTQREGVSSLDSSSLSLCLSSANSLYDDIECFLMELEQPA
TCATATACCTGTATATCACTGTGCTAG: 0.774 z-score
GCCGGTATCGGTCTCGGGACGTGCTAG: 0.833 z-score
GCTTCTCCTTGGAATAGATCGTGCTAG: 2.3 z-score
GGGCCACAAAGCAATAAGAAGTGCTAG: -0.32 z-score
GACGGTATCTACTATCGGGACGTGCTA: -0.389 z-score
GACGATTTCAGTCGCGAGACGTGCTAG: 0.336 z-score
TTAGATTTCAGTTCCGATGAGTGCTAG: 0.971 z-score

Series 3 — technique: Spec-seq; form: double-stranded DNA, one strand shown; medium: in vitro; concentration: not given; notes: whole probe, mean of replicates; relative to: not given; direction: lower = stronger binding; quantity: relative binding energy; all sequences stand within: GAGTCGTCTCGTCAGCACA … CCGTAGAGCACTCAGGTC
Target: POU, POU domain (Salpingoeca helianthica)
Target sequence (chain): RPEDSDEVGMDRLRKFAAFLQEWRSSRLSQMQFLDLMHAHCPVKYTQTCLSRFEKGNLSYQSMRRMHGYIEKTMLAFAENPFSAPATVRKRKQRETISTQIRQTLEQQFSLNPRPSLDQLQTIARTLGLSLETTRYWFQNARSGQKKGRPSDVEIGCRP
TTTCCAT: 1.26 ln ratio
TGCATCC: 1.12 ln ratio
TGCGTGA: 1.26 ln ratio
TGCGAAC: 1.26 ln ratio
TGCGGCT: 1.49 ln ratio
CTATAAT: 0.272 ln ratio

Mixed results
PhoQ, residues 284 288 289 292 302 303 NLCILV
fold induction (PhoP, residues 12 14 15 18 19 HEGLL (Escherichia coli, UniProt P23836); Sort-seq, refers to: YFP reporter; E. coli; PhoQ-PhoP variant library, added: 10 µM Mg2+; relative to: high Mg2+ state, higher = stronger signaling): 15.8

Repeated from above (series 2):
GGGCCACAAAGCAATAAGAAGTGCTAG: -0.32 z-score
GCCGGTATCGGTCTCGGGACGTGCTAG: 0.833 z-score
TTAGATTTCAGTTCCGATGAGTGCTAG: 0.971 z-score
